Results pooled from the literature.
Each numbered part is a random draw from the data of one study; scales do not carry over between parts. Values joined by “and” are separate records of one study, mostly repeats; a detail may differ. Positions count from the first letter of the parent shown.

Sample 1
Structure (SMILES): CC[C@@H](C)c1nc2cc(Nc3ccnc4ccc(S(=O)(=O)C(C)C)cc34)ccc2s1.Cl
cell line	test	conditions	viability
HT-29	necroptosis protection, CCK-8	20 µM, with: TNF-α SMAC mimetic zVAD	93.2% and 89.1% and 73.7% and 80.5%
L929	CCK-8	12.5 µM	111% and 102% and 112% and 113%
L929	CCK-8	25 µM	83.2% and 97.3% and 83.6% and 92.2%
L929	CCK-8	3.125 µM	104% and 106% and 108%
L929	CCK-8	0.781 µM	102% and 98.9% and 99.6% and 98.7% and 100%
L929	CCK-8	0.781 µM, with: zVAD	94.7% and 93.5% and 96.8% and 95.7% and 92.5%
HT-29	necroptosis protection, CCK-8	1.25 µM, with: TNF-α SMAC mimetic zVAD	69.5% and 31.9% and 32.9% and 49.7%
L929 RIPK3 knockout		3.125 µM	106% and 103% and 105% and 101%

Sample 2
Target: CCND1, cyclin fold, Cln2 fusion (human)
Technique: yeast growth competition, sequencing
Matrix: yeast
Setting: strong parent motif
Baseline: not given
Direction: higher = stronger binding
Parent: viral docking peptide; YKVKRRLVFGADD; partner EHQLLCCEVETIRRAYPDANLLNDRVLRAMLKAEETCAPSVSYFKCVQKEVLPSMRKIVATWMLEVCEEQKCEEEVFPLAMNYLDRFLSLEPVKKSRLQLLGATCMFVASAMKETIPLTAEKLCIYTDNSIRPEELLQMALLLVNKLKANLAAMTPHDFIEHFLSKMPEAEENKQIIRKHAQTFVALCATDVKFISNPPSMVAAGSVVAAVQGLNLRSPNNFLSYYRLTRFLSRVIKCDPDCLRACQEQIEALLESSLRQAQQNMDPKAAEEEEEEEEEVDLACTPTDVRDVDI
Variant	normalised enrichment score
YKVKRRHVFGADD [L7H]	-0.545
YKVKRRLVFMADD [G10M]	1.06
YKVKRRLVFSADD [G10S]	1.83
YKVKRRLVFGAQD [D12Q]	1.09
YKVKRRLVFGGDD [A11G]	2.37
YKVKRRLTFGADD [V8T]	3.61
YKVKLRLVFGADD [R5L]	-0.0559
YKVKRRLVFGVDD [A11V]	2.04
YKCKRRLVFGADD [V3C]	3.67
YKVKRSLVFGADD [R6S]	0.433
YKVKRDLVFGADD [R6D]	0.0878
YKVKRRKVFGADD [L7K]	-0.221
YKVKRRLVFGATD [D12T]	1.3
YKVKRRLVFGIDD [A11I]	1.84
YKVKRRLVFGALD [D12L]	0.616

Sample 3
Target: HLA class I histocompatibility antigen, C alpha chain, allele C*04:01 (Homo sapiens, UniProt P10321)
Read-out: peptide-MHC binding
Form: peptide
Concentration: concentration not given
Sequence	binding
IYAAISYMI	inactive
FVDTMSIYI	inactive
YMREVGAAL	inactive
ETTNWLWTF	inactive
KGPPAALTL	inactive
LYPTFYCLF	inactive
LEMQHLISL	inactive
KELGVHMSL	inactive
VYAPAGVEL	inactive
RVRSMANVY	inactive
ASMDNTSPM	inactive
MERFSWHVA	inactive
MWHVTRGAF	inactive
KMFNRASYF	inactive

Sample 4
Target: BATF2, bZIP domain (human)
Technique: DHFR protein complementation
Matrix: yeast
Setting: single substitutions, most at no-binding floor
Baseline: wild-type JUN-FOS pair
Direction: higher = stronger binding
Parent: JUN, bZIP domain (human); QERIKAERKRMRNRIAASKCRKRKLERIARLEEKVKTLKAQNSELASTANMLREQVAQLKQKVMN; partner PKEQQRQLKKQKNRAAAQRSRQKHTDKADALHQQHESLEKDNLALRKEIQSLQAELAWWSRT
Variant	binding fitness [natural log]
A57V	-0.482
N42A	-1.26
E33M	-0.504
T37W	-0.302
V35H	-1.27
A57G	-0.452
T48D	-0.816
L52H	-1.41

For quick reference, copied from above (sample 3):
Sequence	binding
YMREVGAAL	inactive
FVDTMSIYI	inactive
RVRSMANVY	inactive
ASMDNTSPM	inactive
MERFSWHVA	inactive
MWHVTRGAF	inactive
KGPPAALTL	inactive
VYAPAGVEL	inactive
